Measured values collected from several papers.
Numbered parts are unrelated; each lists some results of a single study.

Sample 1
Target: Histone acetyltransferase KAT6A, both winged helices, GST fusion (KAT6A, Homo sapiens, UniProt Q92794, residues 1-181)
Method: protein binding microarray
Form: double-stranded DNA, one strand shown
Medium: in vitro
Tested at: not given
Setting: 8-mer, flanks averaged, mean of 2 arrays, mostly near background
Relative to: not given
Direction: higher = stronger binding
Quantity: E-score
Residues (chain): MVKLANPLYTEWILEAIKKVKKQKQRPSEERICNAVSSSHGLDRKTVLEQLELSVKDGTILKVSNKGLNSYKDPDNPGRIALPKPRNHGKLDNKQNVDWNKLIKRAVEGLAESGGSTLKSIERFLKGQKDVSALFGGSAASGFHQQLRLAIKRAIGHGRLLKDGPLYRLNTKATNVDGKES
CGTCTGTA: 0.0212
GACGAGCA: -0.113
ACTTCAAG: -0.123
ATTCGGGA: 0.0186
CCGAGCCA: 0.0792
TCTCGGCA: 0.178
CAACCAGG: -0.0991
AGGCGAAC: 0.152
CAAGAAGA: -0.177
CCTCTAAC: -0.148
AGTCAATC: -0.13
CGCTTAGC: 0.272
AAAGCTTG: -0.153
ACATAAGG: -0.0144
AAGGTAGT: -0.164
CCTATGAA: 0.0211
CTCGGTGC: -0.0213
ACTCTCTC: -0.131
AAATACTT: -0.049
ATCAATCG: 0.0523
GCGGCAGC: 0.285
GAATCCAC: -0.118

Sample 2
Target: Interferon regulatory factor 7, full length, phosphomimetic (IRF7, Homo sapiens, UniProt Q92985, residues 1-503, S471D/S472D/S475D/S476D/S477D/S483D/S484D/S487D)
Method: protein-binding microarray
Form: double-stranded DNA, one strand shown
Medium: in vitro
Tested at: 2200 nM top
Setting: 60-bp whole probe
With: salmon DNA 0.4 mg/ml
Relative to: random background probes
Direction: higher = stronger binding
Quantity: fitted relative affinity
Shared flanks, not repeated: GCCTAGCAC … GTCTTGATTCGCTTGACGCTGCTG
Construct (chain): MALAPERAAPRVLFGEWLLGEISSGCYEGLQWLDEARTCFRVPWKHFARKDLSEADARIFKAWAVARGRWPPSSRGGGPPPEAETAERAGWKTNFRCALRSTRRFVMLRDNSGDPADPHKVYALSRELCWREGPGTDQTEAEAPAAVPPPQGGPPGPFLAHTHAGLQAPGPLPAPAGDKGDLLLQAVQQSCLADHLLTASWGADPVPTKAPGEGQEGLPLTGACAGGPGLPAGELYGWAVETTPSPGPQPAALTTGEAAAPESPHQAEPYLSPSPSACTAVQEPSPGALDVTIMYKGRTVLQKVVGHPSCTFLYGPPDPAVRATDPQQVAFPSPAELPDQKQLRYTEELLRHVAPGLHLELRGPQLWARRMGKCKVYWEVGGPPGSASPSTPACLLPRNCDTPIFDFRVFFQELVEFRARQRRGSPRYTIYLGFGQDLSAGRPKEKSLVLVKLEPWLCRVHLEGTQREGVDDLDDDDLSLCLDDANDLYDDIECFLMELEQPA
GCCGGTATCCTACTGCTGACGTGCTAG: 0.687 z-score
TCACCTCTCATTCCAATACTGTGCTAG: 2.45 z-score
GACGGTATCGTGTATCGGGACGTGCTA: -0.000889 z-score
GACCTCGTCTCTATCAAAAAGTGCTAG: 0.491 z-score
TCAAAATTGTCTCTGTCACTGTGCTAG: 0.227 z-score
TTAGGTATCGGTATAGGTTAGTGCTAG: 0.334 z-score
TCAGTTTTGAGCTCTGTCACTGTGCTA: 1.45 z-score
TTAGATTTCGGGTATAGATTAGTGCTA: 1.55 z-score
GACGATCTCAGACTGGTGACGTGCTAG: -0.0401 z-score
TTAGGTATCGTTTTCGGTTAGTGCTAG: 6.9 z-score
CTGACATGTAAATGTGACATGTGCTAG: 0.294 z-score
GACGGACGGGGGACTGGGGACGTGCTA: 0.134 z-score
TTAGATCTCATTCTCGATTAGTGCTAG: 0.895 z-score
CTCATTTTCGTTTTGTGTCTGTGCTAG: 15.3 z-score
GTTTGTATATATTTTAACCCGTGCTAG: 1.11 z-score
TTTACTTTCTGAATGCCCTTGTGCTAG: 6.01 z-score
TTAGGTATCGACTTTCCGTTAGTGCTA: 2.25 z-score
TTAGGTCTCGGATTGGGTTAGTGCTAG: 0.869 z-score
CTAGATCTCAGTATCGATTAGTGCTAG: 0.487 z-score

Sample 3
Target: Sal-like protein 4, full length isoform A (SALL4, Homo sapiens, UniProt Q9UJQ4, residues 1-1053)
UniProt Q9UJQ4, sequence (whole entry, looked up): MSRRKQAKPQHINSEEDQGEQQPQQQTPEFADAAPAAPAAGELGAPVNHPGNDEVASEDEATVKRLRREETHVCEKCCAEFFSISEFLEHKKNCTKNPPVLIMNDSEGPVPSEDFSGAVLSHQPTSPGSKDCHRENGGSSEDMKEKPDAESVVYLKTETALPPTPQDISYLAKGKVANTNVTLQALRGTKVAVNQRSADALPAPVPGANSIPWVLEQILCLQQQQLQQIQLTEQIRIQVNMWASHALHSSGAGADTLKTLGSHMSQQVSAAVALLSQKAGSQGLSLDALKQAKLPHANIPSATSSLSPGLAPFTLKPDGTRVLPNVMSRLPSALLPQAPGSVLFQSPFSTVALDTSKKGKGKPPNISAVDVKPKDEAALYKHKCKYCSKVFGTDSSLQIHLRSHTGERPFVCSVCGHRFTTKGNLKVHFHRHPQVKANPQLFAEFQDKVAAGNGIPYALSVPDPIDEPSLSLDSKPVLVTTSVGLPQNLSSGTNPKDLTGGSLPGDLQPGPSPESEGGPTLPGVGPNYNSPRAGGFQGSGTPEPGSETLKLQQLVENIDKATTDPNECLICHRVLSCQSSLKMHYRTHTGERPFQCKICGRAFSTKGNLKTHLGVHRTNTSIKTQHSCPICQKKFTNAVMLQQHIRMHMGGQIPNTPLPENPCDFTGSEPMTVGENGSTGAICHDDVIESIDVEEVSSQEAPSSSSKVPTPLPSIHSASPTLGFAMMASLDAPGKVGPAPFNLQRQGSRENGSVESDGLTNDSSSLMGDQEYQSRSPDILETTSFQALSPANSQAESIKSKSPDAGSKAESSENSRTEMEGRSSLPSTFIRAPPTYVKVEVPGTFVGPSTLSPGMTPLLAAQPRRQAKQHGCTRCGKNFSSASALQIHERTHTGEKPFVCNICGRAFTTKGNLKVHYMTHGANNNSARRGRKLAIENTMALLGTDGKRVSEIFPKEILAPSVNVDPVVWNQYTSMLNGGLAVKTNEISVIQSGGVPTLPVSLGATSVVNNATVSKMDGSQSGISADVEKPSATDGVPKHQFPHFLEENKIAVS
Method: universal PBM
Form: double-stranded DNA, one strand shown
Medium: in vitro
Tested at: 600 nM
Setting: 8-mer, flanks averaged, mean of replicates
Direction: higher = stronger binding
Quantity: E-score
CGTCAGCC: -0.248
CATAACGC: 0.196
GCTGTTAA: 0.12
ATTGTAGG: 0.285
CCCCGTAG: -0.266
GCTTGCAA: 0.0766
CAAGGAGC: -0.0322
ACCTCGTA: 0.152
ACGCCGCA: -0.206
AAGACTGC: -0.165
ATATAGGG: 0.124
GACGATCA: -0.0546
AAAACCTC: 0.0235
CTTCATTC: 0.0651
TGGGAAAA: 0.0981
GCGCCCTA: -0.25
TACATTCA: 0.267
ATTTTGCC: 0.198
TCTCGACA: 0.0867
CAGAACTG: -0.0488
TAGATAAA: 0.293

Sample 4
Target: RNA binding protein fox-1 homolog 2, RRM domain, GST-SBP tag (RBFOX2, Homo sapiens, UniProt O43251-10, residues 100-194)
Method: RNA Bind-n-Seq
Form: RNA
Medium: in vitro
Tested at: 365 nM
Setting: natural RNA segment, single round, ends assumed
Relative to: no-protein control
Direction: higher = stronger binding
Quantity: RBNS enrichment (R)
Shared flanks, not repeated: GGGAGUUCUACAGUCCGACGAUC … UGGAAUUCUCGGGUGCCAA
Residues (chain): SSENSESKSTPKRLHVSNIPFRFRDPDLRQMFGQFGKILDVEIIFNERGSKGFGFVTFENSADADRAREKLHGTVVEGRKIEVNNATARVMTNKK
ACCCCUAGCCACCAGUGUCCCCAAGUGCCCCUCACCCUGCCAGGUGCUCAUUGUAACCAUCGUUCACCAGUGUCCGGCCCCUAGUAGGACCACACAUCACUGCCUGAACU: 0.493
CCAACCCUGCCCCCUGAUCCCGGGCUGGAAGCCUUCCCUCCUUCACUUAAGUUAUUGUGUUAAACCAAAGUUUACAGUGUCUGUUGGUAGCAAGACCCCCUCCUCCCCUC: 2.51
GAGGUUUCCAUUUUUAUUUAAAUUACUAAUGGAUCAAAGAACAAUUGUUUAUUUUUUCUCUUUGGUUUUAGAUAUUAAUGAUAACCUUGUUGGAAUUUUUUUUCCAAAGA: 0.485
UUCCAUAUUUAUGUCUACGAUUUGGUGAAAACAUCCUAAUGUCAUCACAAACUCUGCCAAAUUUGUGGAACUAUGAAAUGUAUUAUUUGUAGACAUAAAGACUUGAUUGC: 0.81
AAAAACAACAACACAAUAACACUAAAAUUUUAGGCACUCUUAAAUGAUCUGCCUCUAAAAGCGUUGGAUGUAGCAUUAUGCAAUUAGGUUUUUCCUUAUUUGCUUCAUUG: 0.355
AGUGUGGAAAGUCUACAGUGCAGAAAGGCUUGAACCUGCCAGCUGAUUUGAAAUACUUUCCCCUGCGCAGGGCCGUAUGCAUCCUGCCAAGCUGCGUUAUAUUCUGUACU: 0.555
GAAACCAAGAGCACAAUUCCCAUUGAGAGAAAGAUCUCUGUGCUGUAAACUAAAACAAAUUGUGCAUUCCUUCCGGGGCCAUCGUCUUUGUUUUCUUUUUUGUCUUGAAU: 0.646
AUGCCGAUUUGAGUUCGCGACACUAUGUACUGCGUUUUUCAUUCUUGUAUUUGACUAUUUAAUCCUUUCUACUUGUCGCUAAAUAUAAUUGUUUUAGUCUUAUGGCAUGA: 0.39
UUUAGGUGGAACUAUUUUCAGUGAAAUUUUCAAAAGGUAUUAACAGCACAGACAGUGUUUUUGACCCUGACAGCCCUGGCUUAGCUUUUGGCUUCCAUGAAUCAGUACUG: 0.336
GAUACAGGGUGAAAUAAAGUCUUGUCUUAGAAACCAGGACCCUAAACCCCACACUAUGUAAUAGAAACACAUGUGUUUUUAUGUCUCAAAUAAAACUAUUAUAUCACUUG: 0.317
CCAGGGGAGGAGGUGGGCAAGCUAACCGAAAGACUCCAUCUUUGUGUGCCCCACCCCUGGACAUAUACUGCUAAGGACAUCUCAAUACUAGACUCAGUCAGGAGUGGUGG: 0.497
GUGACAUGUAGAAAAAUUUACAGUAAACUGAAAUGACCAUUUGUCAAUGCAUUGGUGCAUAGGAGUUACUAGGGCUACUUCUGGAAGCCAAAAUAGAAUAGCAUCUCCAU: 0.74

Sample 5
Target: RING finger protein unkempt homolog, zinc fingers 1-6, SBP tag (UNK, Homo sapiens, UniProt Q9C0B0, residues 30-357)
UniProt Q9C0B0, sequence (30-357, looked up): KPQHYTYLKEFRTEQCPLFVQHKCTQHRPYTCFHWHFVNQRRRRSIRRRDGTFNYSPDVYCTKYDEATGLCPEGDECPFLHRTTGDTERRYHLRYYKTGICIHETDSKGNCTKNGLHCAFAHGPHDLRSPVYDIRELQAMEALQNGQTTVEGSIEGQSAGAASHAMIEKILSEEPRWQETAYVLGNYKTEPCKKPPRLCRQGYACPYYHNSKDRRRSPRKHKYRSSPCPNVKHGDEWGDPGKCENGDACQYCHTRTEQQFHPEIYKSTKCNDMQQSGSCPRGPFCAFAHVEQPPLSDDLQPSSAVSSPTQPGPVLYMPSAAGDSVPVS
Method: RNA Bind-n-Seq
Form: RNA
Medium: in vitro
Tested at: 100 nM
Setting: RNA with constant flanks, vertebrate orthologous sites, ends assumed
Relative to: input RNA pool
Direction: higher = stronger binding
Quantity: bound/input enrichment
Shared flanks, not repeated: GGGAGUUCUACAGUCCGACGAUC … CAACAGAGGAUUGAGCAUCA
CUAGUCUUCCUCUUAGGGUCAGCCUCAAAGCUAUAGGAUUUAUGGAUUUAUGACAAUUGUAUAUCUUUUUGGGUUGAGUUUAAUAUUUUUUUAUUAGCCUGUAAAUAAAGAUGGUGUCUU: 0.419 ratio
AAGAACAGGAGCAGCAUAGACUGAGCUUUGGGGAAAUGAGCUUUGCUUUUUAUAUUUAAAUAGGAUACUUUUAUAUGAUGGGUGCUUUGAGUGUGAAUGCAGCAGGCUCUCCAUUUCAGA: 1.43 ratio
UUAUUUUCAAUCUCUUCUCCCCCUUCCUGAUUUUAAAAGCCCUUCUUUUUUUAGGCAUAUGUAGUAAUAGUAGCAAACGAAAAAAAAUUUAAUUUGGGCAACUUUGAUUCUUAAAACAGA: 1.12 ratio
GGCCCAGGGACUCCUGGGGACAGGUGGUGGGGCCCACUGGCCAUAUCAUCGAGGCCGUUUUAGCUUCAUUUUAAAAAAUAAAAAUUUAACAGUGCCCUUAUUAACCUGUAUGACUGAGAU: 1.85 ratio
GAGAUUCCCCAUUGUCACUGAGAACCACCAAAUCUGACUUUUACAUUUGGUCUCAGAAUUUAGGUUCCUGCCCUGUUGGUUUUUUUGUUUUGUUUUUAAACAGUUUUCAAAAGUUCUUAA: 0.322 ratio
CUCCCCGUAACCCCUAAAAUAGAACUUUUUAAAAUUGUGUCACCACCACUUCUAAAAAUUUAGCAAUAUUAGUAGAAAACACUAAGACAUUGUGCUCAUUGUUUUGCAAAUGAAAUAGUC: 3.62 ratio
UUAUAUGGGCCUCGCAGAGUUGAAGUAAUUGAAGAAGAAACUUCACAAUAAUCUUCAUCUUAGUAUCUCUGACUAGGUGUGGAAUAAAUGUUGUUCGUUGAUCAUUUCUAAACCCCAGAG: 0.579 ratio
CAGCUGAUUCGCUCAUUGGAAGAGCUGCUCAUAUUGCAGUUCUUGAUUCUGAAAUAUUUUUAGAAAAGUUCUUUCUGGUUGCUGCCCUAAAAUACUUCCAAUAGGAGAGGAGCAUUAUGA: 0.869 ratio
GUCUAGUGCUUAAGCCAGCAAUUGUAGAAUGCUAUUUAUUUGUGUCUGUAAGUUUGUACAUAUCUUAACCUCAUAUUGUUGCUGAGUUUCAUUUUGAGGAAAGUGAGUUUGAGUUUUAUU: 0.948 ratio
GCAAUGAAAAAGCAGCCCUUCUCCCAGCCCCCUUUUCACUAGGAGAUACAAACAUUACCAUAGAAGAGCAAUUAAACUCAAUAAAUUUAUCUUUUCAGGAUGAUCCAGACUCCAGUACCA: 2.04 ratio
CGUGCUUAUACUCUUCUAGGGAAGAGAAGAAUUGGGGAAAACUGUCCCCUUUUUAUGGACUAGUUUGUUUCUAAAUUAUGACCAAAAAAUAUUUUGCUAUUUCUUUCUUUAUAUAUGGAC: 0.649 ratio

A few entries again (sample 1):
ACATAAGG: -0.0144
AGTCAATC: -0.13
GCGGCAGC: 0.285
CCTATGAA: 0.0211
CCTCTAAC: -0.148
CGTCTGTA: 0.0212
TCTCGGCA: 0.178
